Published values gathered from unrelated publications.
Lines come from different studies, so protocols differ. Numbers after ± are the reported error.
DCN1-like protein 1: DCN1-like protein 1 (Homo sapiens, UniProt Q96GG9)
Sequence of UniProt Q96GG9 (whole entry, looked up): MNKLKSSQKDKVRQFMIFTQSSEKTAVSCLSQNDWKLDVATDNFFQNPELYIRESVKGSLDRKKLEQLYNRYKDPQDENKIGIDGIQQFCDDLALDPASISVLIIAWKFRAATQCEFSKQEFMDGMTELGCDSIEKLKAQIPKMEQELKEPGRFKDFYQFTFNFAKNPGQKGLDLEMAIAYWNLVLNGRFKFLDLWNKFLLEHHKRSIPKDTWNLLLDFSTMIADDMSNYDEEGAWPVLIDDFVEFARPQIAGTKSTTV
GLP1R: Glucagon-like peptide 1 receptor (GLP1R, Homo sapiens, UniProt P43220)
Sequence of UniProt P21333 (whole entry, looked up): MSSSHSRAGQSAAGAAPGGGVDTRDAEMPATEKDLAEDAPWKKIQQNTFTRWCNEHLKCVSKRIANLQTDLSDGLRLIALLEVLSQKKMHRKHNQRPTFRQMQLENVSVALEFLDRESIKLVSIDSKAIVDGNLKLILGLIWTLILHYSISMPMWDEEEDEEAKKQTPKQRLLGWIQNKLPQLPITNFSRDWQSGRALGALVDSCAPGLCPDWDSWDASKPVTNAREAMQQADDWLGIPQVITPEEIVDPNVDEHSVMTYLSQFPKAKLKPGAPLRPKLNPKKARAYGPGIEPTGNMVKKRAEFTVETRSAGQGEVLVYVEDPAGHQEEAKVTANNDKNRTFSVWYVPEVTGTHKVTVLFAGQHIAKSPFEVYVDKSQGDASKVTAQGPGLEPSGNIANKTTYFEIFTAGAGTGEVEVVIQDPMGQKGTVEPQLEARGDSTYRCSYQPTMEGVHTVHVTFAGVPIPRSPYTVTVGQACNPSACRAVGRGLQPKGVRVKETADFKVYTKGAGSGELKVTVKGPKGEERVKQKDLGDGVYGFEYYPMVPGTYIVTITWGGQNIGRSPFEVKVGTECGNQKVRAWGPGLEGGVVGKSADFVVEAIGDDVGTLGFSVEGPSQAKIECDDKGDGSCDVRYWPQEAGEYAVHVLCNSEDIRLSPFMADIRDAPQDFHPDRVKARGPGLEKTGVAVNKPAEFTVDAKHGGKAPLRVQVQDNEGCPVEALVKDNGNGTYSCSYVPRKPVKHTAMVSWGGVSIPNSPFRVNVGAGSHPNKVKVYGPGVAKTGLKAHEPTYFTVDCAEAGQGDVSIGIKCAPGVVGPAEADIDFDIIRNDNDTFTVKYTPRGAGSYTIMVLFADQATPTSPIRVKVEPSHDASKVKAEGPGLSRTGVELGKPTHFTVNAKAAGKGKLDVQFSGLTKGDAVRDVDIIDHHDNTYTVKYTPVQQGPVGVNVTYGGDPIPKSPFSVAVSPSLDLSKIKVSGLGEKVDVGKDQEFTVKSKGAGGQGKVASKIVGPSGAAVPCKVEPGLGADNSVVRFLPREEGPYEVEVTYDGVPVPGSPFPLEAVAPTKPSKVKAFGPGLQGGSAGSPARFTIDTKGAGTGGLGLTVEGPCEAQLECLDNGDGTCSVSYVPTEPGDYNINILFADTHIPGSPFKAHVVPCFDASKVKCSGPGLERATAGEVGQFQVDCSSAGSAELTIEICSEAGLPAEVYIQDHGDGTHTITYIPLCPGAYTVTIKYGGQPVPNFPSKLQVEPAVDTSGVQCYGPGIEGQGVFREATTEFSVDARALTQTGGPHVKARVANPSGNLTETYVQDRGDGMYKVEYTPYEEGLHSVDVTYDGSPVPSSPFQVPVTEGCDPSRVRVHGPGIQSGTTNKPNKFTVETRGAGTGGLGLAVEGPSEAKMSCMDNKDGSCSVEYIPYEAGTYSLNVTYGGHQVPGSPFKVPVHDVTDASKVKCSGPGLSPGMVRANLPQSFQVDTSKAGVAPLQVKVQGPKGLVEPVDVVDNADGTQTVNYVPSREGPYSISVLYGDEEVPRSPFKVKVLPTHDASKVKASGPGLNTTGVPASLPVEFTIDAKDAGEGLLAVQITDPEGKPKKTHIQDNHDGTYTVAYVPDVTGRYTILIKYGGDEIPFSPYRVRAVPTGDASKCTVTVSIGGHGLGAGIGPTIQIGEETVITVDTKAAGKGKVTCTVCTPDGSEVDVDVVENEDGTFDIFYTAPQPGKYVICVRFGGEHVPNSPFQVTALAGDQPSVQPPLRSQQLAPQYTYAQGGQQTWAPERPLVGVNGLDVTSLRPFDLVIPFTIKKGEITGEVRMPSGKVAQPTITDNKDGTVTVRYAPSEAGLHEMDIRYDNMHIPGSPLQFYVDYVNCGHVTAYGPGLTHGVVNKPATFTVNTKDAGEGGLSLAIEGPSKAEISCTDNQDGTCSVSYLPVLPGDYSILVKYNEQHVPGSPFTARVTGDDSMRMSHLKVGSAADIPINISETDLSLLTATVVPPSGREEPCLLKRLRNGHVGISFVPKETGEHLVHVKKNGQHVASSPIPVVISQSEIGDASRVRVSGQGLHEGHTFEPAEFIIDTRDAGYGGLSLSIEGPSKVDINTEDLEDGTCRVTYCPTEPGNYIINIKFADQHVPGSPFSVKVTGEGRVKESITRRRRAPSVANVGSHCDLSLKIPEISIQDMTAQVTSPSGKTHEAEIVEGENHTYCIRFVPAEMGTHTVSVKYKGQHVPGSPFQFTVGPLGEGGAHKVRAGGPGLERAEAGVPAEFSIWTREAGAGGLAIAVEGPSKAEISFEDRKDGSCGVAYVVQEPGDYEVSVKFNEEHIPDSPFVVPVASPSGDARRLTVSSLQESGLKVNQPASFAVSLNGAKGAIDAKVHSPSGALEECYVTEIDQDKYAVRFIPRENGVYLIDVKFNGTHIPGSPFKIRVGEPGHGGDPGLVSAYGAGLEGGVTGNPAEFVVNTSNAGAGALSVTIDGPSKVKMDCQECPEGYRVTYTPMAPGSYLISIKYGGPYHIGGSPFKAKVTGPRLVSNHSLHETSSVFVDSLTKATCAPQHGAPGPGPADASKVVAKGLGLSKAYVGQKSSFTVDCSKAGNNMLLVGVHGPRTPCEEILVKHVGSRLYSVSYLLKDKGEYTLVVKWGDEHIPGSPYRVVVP
Sequence of UniProt P05164 (whole entry, looked up): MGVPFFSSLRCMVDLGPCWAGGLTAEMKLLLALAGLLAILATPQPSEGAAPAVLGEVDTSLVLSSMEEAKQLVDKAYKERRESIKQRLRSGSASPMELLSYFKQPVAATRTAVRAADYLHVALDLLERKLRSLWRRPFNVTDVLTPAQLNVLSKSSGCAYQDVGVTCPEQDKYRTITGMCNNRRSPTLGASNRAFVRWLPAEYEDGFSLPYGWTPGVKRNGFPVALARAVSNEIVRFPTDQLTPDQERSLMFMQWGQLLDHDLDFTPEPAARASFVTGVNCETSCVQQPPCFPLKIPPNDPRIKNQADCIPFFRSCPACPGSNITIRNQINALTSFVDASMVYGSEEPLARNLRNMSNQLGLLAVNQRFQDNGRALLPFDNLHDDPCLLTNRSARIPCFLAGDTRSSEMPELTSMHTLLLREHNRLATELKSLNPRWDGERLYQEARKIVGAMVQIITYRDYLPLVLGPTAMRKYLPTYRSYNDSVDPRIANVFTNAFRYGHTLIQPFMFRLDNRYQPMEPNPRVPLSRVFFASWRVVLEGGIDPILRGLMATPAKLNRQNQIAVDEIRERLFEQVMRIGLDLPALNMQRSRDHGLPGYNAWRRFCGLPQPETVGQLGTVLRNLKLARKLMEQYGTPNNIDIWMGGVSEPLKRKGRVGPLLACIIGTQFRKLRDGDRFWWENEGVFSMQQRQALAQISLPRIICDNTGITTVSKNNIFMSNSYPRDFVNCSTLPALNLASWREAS
Sequence of UniProt O00506 (whole entry, looked up): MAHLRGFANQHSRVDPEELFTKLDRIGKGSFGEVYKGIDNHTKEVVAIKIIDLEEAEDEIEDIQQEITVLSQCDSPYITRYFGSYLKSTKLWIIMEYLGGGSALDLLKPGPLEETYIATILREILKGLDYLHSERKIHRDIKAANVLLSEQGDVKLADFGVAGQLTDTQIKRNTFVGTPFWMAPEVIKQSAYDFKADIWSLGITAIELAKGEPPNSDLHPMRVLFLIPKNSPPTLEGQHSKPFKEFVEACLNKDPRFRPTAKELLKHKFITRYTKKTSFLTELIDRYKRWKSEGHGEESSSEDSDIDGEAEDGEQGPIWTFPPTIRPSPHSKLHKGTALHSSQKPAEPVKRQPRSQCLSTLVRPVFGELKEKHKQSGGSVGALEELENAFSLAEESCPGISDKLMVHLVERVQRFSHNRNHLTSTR

| Compound | tested on | test | test system | conditions | measurement | result |
| --- | --- | --- | --- | --- | --- | --- |
| Cc1cccc(-n2nc(C)c3c2NC(=O)[C@@H](NC(=O)c2cccc(C(F)(F)F)c2)[C@H]3c2ccc(F)cc2)c1 | DCN1-like protein 1 | – | – | – | IC50 | > 15 µM |
| CC[C@H](C)[C@H](NC(=O)[C@H](Cc1ccccc1)NC(=O)[C@H](CCC(=O)O)NC(=O)[C@H](CCCNC(=N)N)NC(=O)[C@H](C)NC(=O)[C@H](C)NC(=O)[C@H](CCC(N)=O)NC(=O)[C@H](CCC(=O)O)NC(=O)[C@H](CCC(=O)O)NC(=O)[C@H](CC(C)C)NC(=O)[C@H](Cc1ccc(O)cc1)NC(=O)[C@H](CO)NC(=O)[C@H](CO)NC(=O)[C@@H](NC(=O)[C@H](CC(=O)O)NC(=O)[C@H](CO)NC(=O)[C@@H](NC(=O)[C@H](Cc1ccccc1)NC(=O)[C@@H](NC(=O)CNC(=O)[C@H](CCC(=O)O)NC(=O)[C@H](C)NC(=O)CCc1cnc[nH]1)[C@@H](C)O)[C@@H](C)O)C(C)C)C(=O)N[C@@H](C)C(=O)N[C@@H](Cc1c[nH]c2ccccc12)C(=O)N[C@@H](CC(C)C)C(=O)N[C@H](C(=O)N[C@@H](CCCCNc1c(NCCCCCN(O)C(=O)CCC(=O)NCCCCCN(O)C(=O)CCC(=O)NCCCCCN(O)C(C)=O)c(=O)c1=O)C(=O)NCC(=O)N[C@@H](CCCNC(=N)N)C(=O)N[C@@H](CCCCNc1c(NCCCCCN(O)C(=O)CCC(=O)NCCCCCN(O)C(=O)CCC(=O)NCCCCCN(O)C(C)=O)c(=O)c1=O)C(=O)NCC(=O)NCC(=O)N[C@@H](CO)C(=O)N[C@@H](CCCCNC(=O)COCCOCCNC(=O)COCCOCCNC(=O)CC[C@H](NC(=O)CCCCCCCCCCCCCCCCC(=O)O)C(=O)O)C(=O)O)C(C)C | GLP1R | cAMP reporter gene, agonist, CRE luciferase | BHK | without Zr, 1% HSA | EC50 | 0.00031 µM |
| COc1cc2c(Oc3ccc4[nH]c(C)cc4c3F)ccnc2cc1OCC1(N)CC1 | – | – | paediatric recurrent refractory sarcoma | 8 mg | grade 1 or 2 Dizzy | 0% |
| CC(C)C[C@@H]1NC(=O)[C@H](CC(C)C)NC(=O)[C@H](Cc2c[nH]c3ccccc23)NC(=O)[C@H](CO)NC(=O)[C@H](Cc2c[nH]c3ccccc23)NC(=O)[C@@H]2CCCN2C(=O)[C@H](CC(C)C)NC(=O)[C@H](Cc2c[nH]cn2)NC(=O)[C@@H]2CCCN2C(=O)[C@H](CC(N)=O)NC(=O)[C@H](C)NC(=O)[C@H](Cc2ccc(O)cc2)NC(=O)[C@H](CS)NC(=O)[C@H](CCCCNC(=O)CN2CCN(CC(=O)O)CCN(CC(=O)O)CCN(CC(=O)O)CC2)NC1=O [lutetium-177 labelled] | – | – | Balb/c mouse, female, 4T1 tumour, spleen | intravenous, 3.7 MBq, 1 h | tissue uptake | 0.11 ± 0.09 %ID |
| CC[C@H](C)[C@@H]([C@@H](CC(=O)N1CCC[C@H]1[C@H](OC)[C@@H](C)C(=O)N[C@H](C)[C@@H](O)c1ccccc1)OC)N(C)C(=O)[C@@H](NC(=O)[C@H](C(C)C)N(C)C(=O)OCc1ccc(NC(=O)[C@H](CCCNC(N)=O)NC(=O)[C@@H](NC(=O)CCCCCN2C(=O)CC(SC[C@H](NC(=O)[C@H](CC(=O)O)NC(=O)[C@H](CCCNC(=N)N)NC(=O)[C@H](CC(=O)O)NC(=O)CCCCn3cc(CCCC(=O)Nc4nnc(S(N)(=O)=O)s4)nn3)C(=O)O)C2=O)C(C)C)cc1)C(C)C (stereo partly shown) | – | – | BALB/c nu/nu mice, SK-RC-52 xenograft | intravenous | maximal tolerated dose | 250 nmol/kg |
| COc1cc(Nc2ncc(F)c(Nc3ccc4c(n3)NC(=O)C(C)(C)O4)n2)cc(OC)c1OC | Myeloperoxidase (MPO, Homo sapiens, UniProt P05164) | – | – | – | IC50 | > 10 µM |
| Cc1cc([C@H]2c3c(C)nn(-c4ccccc4)c3NC(=O)[C@H]2NC(=O)c2cccc(C(F)(F)F)c2)cs1 | DCN1-like protein 1 | – | – | – | IC50 | > 15 µM |
| CC[C@H](C)[C@H](NC(=O)[C@H](Cc1ccccc1)NC(=O)[C@H](CCC(=O)O)NC(=O)[C@H](CCCNC(=N)N)NC(=O)[C@H](C)NC(=O)[C@H](C)NC(=O)[C@H](CCC(N)=O)NC(=O)[C@H](CCC(=O)O)NC(=O)[C@H](CCC(=O)O)NC(=O)[C@H](CC(C)C)NC(=O)[C@H](Cc1ccc(O)cc1)NC(=O)[C@H](CO)NC(=O)[C@H](CO)NC(=O)[C@@H](NC(=O)[C@H](CC(=O)O)NC(=O)[C@H](CO)NC(=O)[C@@H](NC(=O)[C@H](Cc1ccccc1)NC(=O)[C@@H](NC(=O)CNC(=O)[C@H](CCC(=O)O)NC(=O)[C@H](C)NC(=O)CCc1cnc[nH]1)[C@@H](C)O)[C@@H](C)O)C(C)C)C(=O)N[C@@H](C)C(=O)N[C@@H](Cc1c[nH]c2ccccc12)C(=O)N[C@@H](CC(C)C)C(=O)N[C@H](C(=O)N[C@@H](CCCCNC(=O)COCCOCCNC(=O)COCCOCCNC(=O)CC[C@H](NC(=O)CCCCCCCCCCCCCCCCC(=O)O)C(=O)O)C(=O)NCC(=O)N[C@@H](CCCNC(=N)N)C(=O)N[C@@H](CCCCNc1c(NCCCCCN(O)C(=O)CCC(=O)NCCCCCN(O)C(=O)CCC(=O)NCCCCCN(O)C(C)=O)c(=O)c1=O)C(=O)NCC(=O)NCC(=O)N[C@@H](CO)C(=O)N[C@@H](CCCCNc1c(NCCCCCN(O)C(=O)CCC(=O)NCCCCCN(O)C(=O)CCC(=O)NCCCCCN(O)C(C)=O)c(=O)c1=O)C(=O)NCC(=O)NCC(=O)N[C@@H](CO)C(=O)N[C@@H](CCCCNc1c(NCCCCCN(O)C(=O)CCC(=O)NCCCCCN(O)C(=O)CCC(=O)NCCCCCN(O)C(C)=O)c(=O)c1=O)C(=O)O)C(C)C | GLP1R | cAMP reporter gene, agonist, CRE luciferase | BHK | without Zr, 1% HSA | EC50 | 0.00031 µM |
| Cc1nn(-c2ccccc2)c2c1[C@H](c1ccsc1)[C@H](NC(=O)c1cccc(C(F)(F)F)c1)C(=O)N2 | DCN1-like protein 1 | – | – | – | IC50 | > 15 µM |
| C[C@H]1CN(c2n[nH]c3nc(N[C@H]4CC[C@H](NS(=O)(=O)CCC(F)(F)F)CC4)ncc23)CCO1 | Filamin-A (Homo sapiens, UniProt P21333) | biochemical | – | – | IC50 | ≥ 20 µM |
| CC[C@H](C)[C@H](NC(=O)[C@H](Cc1ccccc1)NC(=O)[C@H](CCC(=O)O)NC(=O)[C@H](CCCNC(=N)N)NC(=O)[C@H](C)NC(=O)[C@H](C)NC(=O)[C@H](CCC(N)=O)NC(=O)[C@H](CCC(=O)O)NC(=O)[C@H](CCC(=O)O)NC(=O)[C@H](CC(C)C)NC(=O)[C@H](Cc1ccc(O)cc1)NC(=O)[C@H](CO)NC(=O)[C@H](CO)NC(=O)[C@@H](NC(=O)[C@H](CC(=O)O)NC(=O)[C@H](CO)NC(=O)[C@@H](NC(=O)[C@H](Cc1ccccc1)NC(=O)[C@@H](NC(=O)CNC(=O)[C@H](CCC(=O)O)NC(=O)[C@H](C)NC(=O)CCc1cnc[nH]1)[C@@H](C)O)[C@@H](C)O)C(C)C)C(=O)N[C@@H](C)C(=O)N[C@@H](Cc1c[nH]c2ccccc12)C(=O)N[C@@H](CC(C)C)C(=O)N[C@H](C(=O)N[C@@H](CCCNC(=N)N)C(=O)NCC(=O)N[C@@H](CCCNC(=N)N)C(=O)N[C@@H](CCCCNC(=O)COCCOCCNC(=O)COCCOCCNC(=O)CC[C@H](NC(=O)CCCCCCCCCCCCCCCCC(=O)O)C(=O)O)C(=O)NCC(=O)NCC(=O)N[C@@H](CO)C(=O)N[C@@H](CCCCNc1c(NCCCCCN(O)C(=O)CCC(=O)NCCCCCN(O)C(=O)CCC(=O)NCCCCCN(O)C(C)=O)c(=O)c1=O)C(=O)NCC(=O)NCC(=O)N[C@@H](CO)C(=O)N[C@@H](CCCCNc1c(NCCCCCN(O)C(=O)CCC(=O)NCCCCCN(O)C(=O)CCC(=O)NCCCCCN(O)C(C)=O)c(=O)c1=O)C(=O)O)C(C)C | GLP1R | cAMP reporter gene, agonist, CRE luciferase | BHK | without Zr, 1% HSA | EC50 | 0.00016 µM |
| COc1ccc(N2C(=O)N(c3c(C)cccc3Cl)Cc3cnc(Nc4ccc(C5CCN(C)CC5)cc4OC)nc32)nc1 | Serine/threonine-protein kinase 25 (STK25, Homo sapiens, UniProt O00506) | kinase activity | – | 0.5 µM | inhibition | 15% |
| N[C@@H](CS)C(=O)O | SclA protein (Enterococcus faecalis, UniProt Q831E3, H100N) | – | – | – | Ki | 570 ± 60 µM |
